Results collected from several papers.
Parts stem from different laboratories: compare values within a part only. Substitutions count along the parent as printed.

Study 1
Target: CCNA2, cyclin fold, Cln2 fusion (human)
Technique: yeast growth competition, sequencing
Matrix: yeast
Notes: strong parent motif
Baseline: not given
Reading: higher = stronger binding
Measurement: normalised enrichment score
Starting sequence: RBL2 docking peptide (human); STTRRRLFVENDS; partner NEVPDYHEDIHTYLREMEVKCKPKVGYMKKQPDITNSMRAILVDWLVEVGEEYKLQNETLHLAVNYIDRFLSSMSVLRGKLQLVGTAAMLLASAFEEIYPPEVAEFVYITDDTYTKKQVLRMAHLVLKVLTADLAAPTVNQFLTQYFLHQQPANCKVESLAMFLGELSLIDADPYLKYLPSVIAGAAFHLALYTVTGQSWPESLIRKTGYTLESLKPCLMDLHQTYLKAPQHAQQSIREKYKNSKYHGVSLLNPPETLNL
T3M: 3.5
R4I: 2.18
R4D: -0.903
L7F: 1.61
V9L: 5.35
V9W: 6.52
S1H: 5.2
R6Q: 5.67
R6Y: 0.736
R4W: 1.1
S1L: 5.13
N11G: 5.85
R4Y: 2.47
D12Y: 5.51
V9H: 5.97
V9A: 6.46
T2G: 6.2
V9I: 6.1

Study 2
Target: Fragile X messenger ribonucleoprotein 1, C-terminal low-complexity region (Fmr1, Mus musculus, UniProt P35922)
Technique: RNA Bind-n-Seq
Molecule type: RNA
Matrix: in vitro
Tested at: 200 nM
Notes: whole 134-nt RNA, ends assumed
With: 150 mM LiCl
Baseline: input library
Reading: higher = stronger binding
Measurement: log2 enrichment
Each molecule: 7-deaza-guanosine replaces G
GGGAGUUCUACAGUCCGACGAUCUCCUGUGCUACACAUCGUAUGUACCGAAUCGGAAAAAAGGGGAAAAAAGGGAAAAAAGGGAAAGUAUUAUGUUACGCCGUUCGGAUCUGCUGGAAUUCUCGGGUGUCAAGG: -0.331
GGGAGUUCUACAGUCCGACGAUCAGUCCUGUGCUACACAUCGUAUGUACCGAAUCGGGUUUGGGAAAGGGAAAAAAAGGGAAAGUAUUAUGUUACGCCGUUCGGAUCUGCACUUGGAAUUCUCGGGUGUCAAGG: -0.684
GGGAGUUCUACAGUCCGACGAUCCACAGACAACACGCACCCACACAGACACAGAGGGAAGGGGUUGGGAUGGGGACAGGGUGCACAGCAGGGCGAGGUAGGACCCCAGCCCCUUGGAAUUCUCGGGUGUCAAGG: 0.232
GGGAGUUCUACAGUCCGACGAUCAAGUCCUGUGCUACACAUCGUAUGUACCGAAUCGGGGUUUUGGGUUUUGGGUUUUGGAAAGUAUUAUGUUACGCCGUUCGGAUCUGCACUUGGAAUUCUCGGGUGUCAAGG: -1.16
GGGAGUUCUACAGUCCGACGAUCUGGGCAUUUUGGUGGAGACGAUGAGCACCAACGACACGAUCGUCAGUGGCACGCUGCCCCAGCGCAUGGCGUCCUGCCUGGAGGUGCUGGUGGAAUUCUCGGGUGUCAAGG: -2.3
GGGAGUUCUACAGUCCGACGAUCUCCUGUGCUACACAUCGUAUGUACCGAAUCGGGGUUUGGGGUUUUUUUGGGGAAAGGGGAAAGUAUUAUGUUACGCCGUUCGGAUCUGCAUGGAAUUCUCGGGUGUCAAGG: -0.425
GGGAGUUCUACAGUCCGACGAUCGUCCUGUGCUACACAUCGUAUGUACCGAAUCGGGGAAAAAGGGAAAAAGGAAAAAGGGAAAGUAUUAUGUUACGCCGUUCGGAUCUGCACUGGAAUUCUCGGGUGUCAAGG: 0.229
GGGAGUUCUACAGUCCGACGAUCCAAGUCCUGUGCUACACAUCGUAUGUACCGAAUCGGGGCCCGGCCCGGGGCCCGGAAAGUAUUAUGUUACGCCGUUCGGAUCUGCACUUCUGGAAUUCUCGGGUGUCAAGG: -1.26
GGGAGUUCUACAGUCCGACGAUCCCUGUGCUACACAUCGUAUGUACCGAAUCAAAUUUUUUUAAACCCCCAAACCCCCCCAAAAAAGUAUUAUGUUACGCCGUUCGGAUCUGCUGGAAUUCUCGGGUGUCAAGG: 1.39
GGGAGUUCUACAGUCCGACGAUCUUGAAAGAAUUUGCCAACUUUGACUUUGAUGUCUGGAGGAAAAAGUAUAUGCGUUGGAUGAAUCACAAAAAGUCUCGAGUGAUGGAUUUCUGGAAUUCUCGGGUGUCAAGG: -3.66
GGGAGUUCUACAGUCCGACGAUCUAGAGACUUCAGAUGGAUUUUAAAAUUGAACACACUUGGGAUGGUUUUCCAGUGAAGCAUGAGCCCGUAUUUAUCAGGCUGAAUCCAGGUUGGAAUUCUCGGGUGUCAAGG: -2.35

Study 3
Target: ABI1, truncated, D143A, DHFR fusion (Arabidopsis thaliana)
Technique: DHFR PCA, deep sequencing
Matrix: yeast
Notes: methotrexate growth selection, single substitutions
With: (+)-ABA 0.032 µM
Baseline: wild-type fitted maximum
Reading: higher = stronger binding
Measurement: relative binding score
Starting sequence: PYL1, truncated, DHFR fusion (Arabidopsis thaliana); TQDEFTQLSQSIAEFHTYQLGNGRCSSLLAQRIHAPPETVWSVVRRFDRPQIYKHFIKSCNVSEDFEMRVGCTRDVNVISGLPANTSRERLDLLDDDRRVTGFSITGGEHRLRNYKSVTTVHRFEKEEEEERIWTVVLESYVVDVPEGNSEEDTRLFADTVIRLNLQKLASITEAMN
T173S: 16.8%
H34W: 10.7%
D96A: 2.57%
H122L: 1.88%
I52S: 12.1%
L166R: 4.03%
A158E: -3.85%
S140P: 8.58%
T119I: -0.762%
F124A: 7.34%
E127W: 11%
V143I: 1.27%
S26C: 11.2%
W134A: 14.7%

Study 4
Target: TAR DNA-binding protein 43, full length, His tag (TARDBP, Homo sapiens, UniProt Q13148, residues 1-414)
Technique: RNA Bind-n-Seq
Molecule type: RNA
Matrix: in vitro
Tested at: 20 nM
Notes: 6-mer, flanks averaged, single round
With: 150 mM KCl
Baseline: input library
Reading: higher = stronger binding
Measurement: 6-mer enrichment (R)
CAAUAA: 1.01
UGUUCA: 0.603
ACUCCU: 0.605
GGAAUA: 0.926
UUCGGA: 0.762
UUAAUG: 0.659
AGCUAC: 0.636
CAAUUG: 0.667
ACAUAC: 0.598
AUCUUA: 0.547
UCAGGU: 0.787
UUUGCU: 0.66
AUUCCC: 0.574
ACCGCA: 0.686
AGUGCU: 0.776

For quick reference, copied from above (study 3):
S140P: 8.58%
F124A: 7.34%
H34W: 10.7%
D96A: 2.57%
S26C: 11.2%
H122L: 1.88%
